# Measured values pooled from the literature.
# Each numbered part is a random draw from the data of one study; scales do not carry over between parts. Changes are numbered by the printed parent chain.

# Series 1
# Target: RING finger protein unkempt homolog, zinc fingers 1-6, SBP tag (UNK, Homo sapiens, UniProt Q9C0B0, residues 30-357)
# UniProt Q9C0B0, sequence (30-357, looked up): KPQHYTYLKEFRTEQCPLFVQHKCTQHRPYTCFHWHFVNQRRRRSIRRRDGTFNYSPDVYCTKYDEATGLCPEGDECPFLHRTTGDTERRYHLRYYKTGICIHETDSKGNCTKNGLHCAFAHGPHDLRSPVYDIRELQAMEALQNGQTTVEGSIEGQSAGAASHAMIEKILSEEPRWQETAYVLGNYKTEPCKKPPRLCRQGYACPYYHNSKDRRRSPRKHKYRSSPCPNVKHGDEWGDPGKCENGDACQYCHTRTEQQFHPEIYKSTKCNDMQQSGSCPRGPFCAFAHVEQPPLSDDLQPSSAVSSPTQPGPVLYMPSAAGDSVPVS
# Method: RNA Bind-n-Seq
# Form: RNA
# Medium: in vitro
# Tested at: 100 nM
# Notes: RNA with constant flanks, vertebrate orthologous sites, ends assumed
# Baseline: input RNA pool
# Reading: higher = stronger binding
# All sequences stand within: GGGAGUUCUACAGUCCGACGAUC … CAACAGAGGAUUGAGCAUCA
Sequence,bound/input enrichment [ratio]
AAACCAUGGCCGCUUUUUACUGCCUCAGUGAGGUAGUCUCCCUUGAUGUUUGGUUGUGACAAGAGCCCAUCGUACCGAAUAAGUCUUUCCACAUUUCAUUUCUUUCACGCUCUUAGUCGC,0.375
UUUUAUUGAUCAGGUCUGUAAAUGUGUACUAAAAAAAUCAGAGAUUAUUUAUAAGCAAAAUAGUUUAUUUAAAGAGAAUAGUUCUUGUCAGUUUUGUGGUAUGCAUUGAUUCCAUUUGUU,0.282
UAUCUUUAGGAUGAAGCUCUUACAUCAGGUGUCACGAGUUUGGAAAACAGAUGGCUUGUCUAGUUGUUCUUAUAAAUUACUGUCUGUGGAACACAAACCUUUGUAUAUCAACAUCACGGU,0.574
GAAUAUGAUUUGUCUAAUUUAUUAUUUUUUCUCUUGCUGAAGUACUACGCUAUGCCAAAACAGUGAUUGUUAACCAUUAAUUGAUCUGUUAUGGGCGUGGCUAUAUAUUGAAAUGCGAUU,0.45
UCAGUGCCCUGGGCCGGGACAGAUUUUUUUUAACGUCUUGAAACUUAAACUCUGUGCUUGUAGGAUACUGUAACCUUUUUGUCUUUUUUUUUUUUUAAAACCUCCACCUCCAGUGACUGU,0.896
UGUGUCUGUACAGGGCAUCCUCUGUACUAGUUUAUUGUGGUUAUAAAAUAAUUAGUAAAACAGCUUACAUUUGUAUUUAUUUUCUAUUCCAUACUCUGUGCCCCAUGGUUUGUUUUUUUU,0.724
AAGAACUCUUGCAGUCUUAGAUGUUAUAAAAAAUAUAUAUAUCUGAAUUGUAAGAGUUGUUAGCACAGUUUUUUGGUUUUUUUUUUUUUAGCACUUGUUUUGGGUACAAGGCAUUUUUGA,1.48
GUGGGGACAUAUUCUGGGGAGCUACCGGGCACUUACAUUAUUUGAUUUAUGACCUUGACUUACUAGAUAGGCUUUUCUUUUUUUAAUUUAAAAAUAUUGACUUCACAAAAGUUUAUUCUA,0.659
GGUUGUACCUCCUGAACUUCUAGCUUUCAAGUUGUGGCUGUUUUUUUUUUUUCUUUUCUUUAGAAUUUUUCCCUGUUUCCCACCUUCUCUUCCCCUGUUCCCAAGGUCUAACUCAUGGAU,2.47
AUCCUUCUACCGUCCCCAGCCAGGGCCAAGGACCUCAGCUGUUUCACUGAGGACCUGCAUCUAAAACAAUUUUUUUAAUUGUUAUACAGGAAGAGAUGUGACUAAAACACCAUCUCAAAG,0.288
GUGUUUUGGUACAAAGCUGUGUACCAAUACUCAUCUUCUUUACAUUAUACCGACUAUCCCUAGAAAUAGUUUAAUAUUUUUCAGAAUUUUACAUUGCUGUAUAUUCAAAAUUUUAAAGAU,0.53

# Series 2
# Target: XBP1, bZIP domain (human)
# Method: DHFR protein complementation
# Medium: yeast
# Notes: single substitutions, most at no-binding floor
# Baseline: wild-type JUN-FOS pair
# Reading: higher = stronger binding
# Starting sequence: JUN, bZIP domain (human); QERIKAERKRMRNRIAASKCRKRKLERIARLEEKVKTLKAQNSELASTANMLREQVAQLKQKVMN; partner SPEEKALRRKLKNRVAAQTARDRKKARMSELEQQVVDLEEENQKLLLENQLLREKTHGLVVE
Variant,binding fitness
S43H,-0.601 natural log
K34N,-1.45 natural log
A46I,-0.588 natural log
A57G,-0.694 natural log
T37S,-0.736 natural log
L38D,-1.57 natural log
A57M,-1.13 natural log
L52M,-1.09 natural log
E32W,-1.46 natural log
L38E,-1.42 natural log
A29P,-1.44 natural log
E54I,-1.42 natural log
L52C,-1.5 natural log
E32V,-1.3 natural log
L45I,-1.54 natural log
K34H,-1.12 natural log

# Series 3
# Target: ABI1, truncated, D143A, DHFR fusion (Arabidopsis thaliana)
# Method: DHFR PCA, deep sequencing
# Medium: yeast
# Notes: methotrexate growth selection, single substitutions
# With: (+)-ABA 2500 µM
# Baseline: wild-type fitted maximum
# Reading: higher = stronger binding
# Starting sequence: PYL1, truncated, DHFR fusion (Arabidopsis thaliana); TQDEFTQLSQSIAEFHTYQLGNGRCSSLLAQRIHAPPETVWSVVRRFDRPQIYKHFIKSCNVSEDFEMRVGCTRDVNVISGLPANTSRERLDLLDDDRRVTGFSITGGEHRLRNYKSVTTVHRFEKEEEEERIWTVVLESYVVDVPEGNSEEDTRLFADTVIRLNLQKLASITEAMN
Variant,relative binding score
G102C,84.1%
Q10K,110%
R132I,109%
F5K,109%
I12K,95.9%
F5A,102%
I172Q,92.7%
D144G,79.3%
E4D,96.3%
Q167L,92.9%
N77W,94.7%
E151P,98.8%
I79M,95%
A170P,13.3%
P50D,8.39%
H16A,46.5%
E131S,105%
T101V,97.5%
N22Q,105%
S171F,90.5%
V62T,91.8%
R111A,83%
V145K,83.9%

# Series 4
# Target: Interferon regulatory factor 3, full length, phosphomimetic (IRF3, Homo sapiens, UniProt Q14653, residues 1-427, S386D/S396D/S398D/S402D/T404D/S405D)
# UniProt Q14653, sequence (whole entry, unmodified, looked up): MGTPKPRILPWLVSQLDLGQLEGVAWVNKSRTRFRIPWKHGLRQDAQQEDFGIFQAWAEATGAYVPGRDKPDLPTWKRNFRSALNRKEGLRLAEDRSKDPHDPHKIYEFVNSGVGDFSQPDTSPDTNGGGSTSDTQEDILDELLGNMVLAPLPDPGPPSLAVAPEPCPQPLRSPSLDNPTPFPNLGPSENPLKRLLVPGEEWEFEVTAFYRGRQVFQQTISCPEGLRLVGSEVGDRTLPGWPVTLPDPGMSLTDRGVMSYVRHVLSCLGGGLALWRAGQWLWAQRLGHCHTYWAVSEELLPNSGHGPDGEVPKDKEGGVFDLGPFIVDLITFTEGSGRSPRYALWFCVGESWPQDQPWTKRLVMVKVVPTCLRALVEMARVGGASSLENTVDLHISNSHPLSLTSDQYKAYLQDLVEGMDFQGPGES
# Method: protein-binding microarray
# Form: double-stranded DNA, one strand shown
# Medium: in vitro
# Tested at: 2540 nM top
# Notes: 60-bp whole probe
# With: salmon DNA 0.4 mg/ml
# Baseline: random background probes
# Reading: higher = stronger binding
# All sequences stand within: GCCTAGCAC … GTCTTGATTCGCTTGACGCTGCTG
Sequence,fitted relative affinity [z-score]
TTAGAACTGCGTCTCGATTAGTGCTAG,-0.432
TTAGGTTTCCTACTCCTTTAGTGCTAG,6.71
GACGGTATCGACTAACGGGACGTGCTA,0.354
GAAAATTAGTGTTTTGCCCTGTGCTAG,-0.0292
TCAACTTTCTTTTGCTTACTGTGCTAG,1.33
CTCAAAGTCTTTTATGGTATTGTGCTA,-0.23
TCATTTAGTAGTTTCTAACTGTGCTAG,1.62
TTAGATAGCAGACTGGATTAGTGCTAG,-0.639
TTTGGTATCCTTTTCCTTTAGTGCTAG,8.9
TTAGATCTCAGACTGGAGTAGTGCTAG,-0.198
TTAGATTCAAGTTTCGATTAGTGCTAG,2.78
TCATGATTGAATCTCCCACTGTGCTAG,-0.036
GACGATATCAGTATCGATACGTGCTAG,2.16
GAGACTCTAATATTGAGACTGTGCTAG,-0.418
TTAGATTTAAGTTTCGATTAGTGCTAG,3.28
GACGAGTTCAGACTGGAGACGTGCTAG,-0.134
AGAGCCATCAATATCTGCAAGTGCTAG,-0.696
TGAGGACTGGGGACTGGGTTAGTGCTA,-1.36
TTAGATATCAGTGTCGATTAGTGCTAG,0.708
GACGATCTGGGGTTTCGAGACGTGCTA,0.359

# Series 5
# Target: Sal-like protein 4, full length isoform A (SALL4, Homo sapiens, UniProt Q9UJQ4, residues 1-1053)
# UniProt Q9UJQ4, sequence (whole entry, looked up): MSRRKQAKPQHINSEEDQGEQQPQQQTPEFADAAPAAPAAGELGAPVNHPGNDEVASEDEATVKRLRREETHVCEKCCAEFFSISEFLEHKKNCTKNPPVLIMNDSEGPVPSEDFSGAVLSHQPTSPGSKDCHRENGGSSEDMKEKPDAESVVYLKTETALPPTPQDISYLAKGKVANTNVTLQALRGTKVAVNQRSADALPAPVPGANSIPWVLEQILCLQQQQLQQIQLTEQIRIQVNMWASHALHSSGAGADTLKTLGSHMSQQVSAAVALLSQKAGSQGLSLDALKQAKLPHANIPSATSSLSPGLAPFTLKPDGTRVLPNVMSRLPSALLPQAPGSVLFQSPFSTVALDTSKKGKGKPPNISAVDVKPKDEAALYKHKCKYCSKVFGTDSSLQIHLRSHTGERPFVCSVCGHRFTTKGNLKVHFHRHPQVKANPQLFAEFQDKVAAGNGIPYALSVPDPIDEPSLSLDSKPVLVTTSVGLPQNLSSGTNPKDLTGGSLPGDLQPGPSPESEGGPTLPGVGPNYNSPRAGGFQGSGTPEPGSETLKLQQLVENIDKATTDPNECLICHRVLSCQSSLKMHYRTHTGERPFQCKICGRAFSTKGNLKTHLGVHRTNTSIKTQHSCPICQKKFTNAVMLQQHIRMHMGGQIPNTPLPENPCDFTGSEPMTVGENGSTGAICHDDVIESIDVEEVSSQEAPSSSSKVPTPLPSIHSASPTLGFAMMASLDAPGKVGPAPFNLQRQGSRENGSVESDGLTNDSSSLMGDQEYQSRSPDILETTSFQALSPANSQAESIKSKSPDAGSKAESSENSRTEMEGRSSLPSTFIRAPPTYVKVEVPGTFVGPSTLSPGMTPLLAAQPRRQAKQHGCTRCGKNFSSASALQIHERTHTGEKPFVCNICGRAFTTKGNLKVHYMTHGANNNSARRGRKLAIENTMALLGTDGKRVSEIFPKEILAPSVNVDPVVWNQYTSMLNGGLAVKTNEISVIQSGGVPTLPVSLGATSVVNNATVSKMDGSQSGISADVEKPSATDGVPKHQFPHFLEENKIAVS
# Method: universal PBM
# Form: double-stranded DNA, one strand shown
# Medium: in vitro
# Tested at: 600 nM
# Notes: 8-mer, flanks averaged, mean of replicates
# Reading: higher = stronger binding
Sequence,E-score
CTGTACTC,-0.0636
AGCTATGG,-0.0245
ACGTTGCC,-0.2
AATGTGAT,0.225
AAACCTAC,-0.0313
ACTGAACC,-0.204
TCCCGCAA,-0.0426
GTAGTGCA,0.134
ACTCGTCT,0.0357
CATCTACA,0.174
CTTTCGGA,-0.0136
CCTCCCCA,-0.221
ACAATTGA,0.194
ATCACGAG,-0.0281
ACTTCCCG,-0.0505
GTGGTGCA,-0.0382
AGATTCCA,0.0111
ACAGACCG,-0.14
ACAGGAGT,0.00958
CAGTCGCC,-0.238
AGGTGATA,-0.0114
CTAATCAC,0.267
ACGGCCCG,-0.189
CCTCGCGA,-0.248
CTTAGTCC,-0.0827

# Series 6
# Target: CCNB3, cyclin fold, Cln2 fusion (human)
# Method: yeast growth competition, sequencing
# Medium: yeast
# Notes: weak parent motif
# Baseline: not given
# Reading: higher = stronger binding
# Starting sequence: WEE1 docking peptide (human); HKTFRKLRLFDTP; partner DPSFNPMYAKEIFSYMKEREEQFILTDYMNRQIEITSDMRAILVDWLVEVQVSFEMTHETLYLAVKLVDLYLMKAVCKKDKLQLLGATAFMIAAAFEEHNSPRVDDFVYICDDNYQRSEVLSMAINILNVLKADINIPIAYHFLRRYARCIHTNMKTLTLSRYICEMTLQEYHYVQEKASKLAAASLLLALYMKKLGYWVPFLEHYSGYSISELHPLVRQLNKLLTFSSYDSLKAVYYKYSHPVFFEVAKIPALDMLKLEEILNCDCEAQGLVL
Variant,normalised enrichment score
T3C,-0.0148
D11F,0.494
F4N,0.0712
F10V,-0.192
F4H,0.325
D11C,0.693
K2W,0.228
F10W,-0.00557
H1A,-0.123
H1M,0.378
R8E,0.728
L7R,0.14
F10G,-0.387
T12R,0.395
L7I,0.973
K2R,0.249
F4G,-0.000125
T3I,-0.104
T3W,-0.572
P13I,-0.119
R5K,-0.00539
T12E,0.406
R5N,-4.02
H1W,0.488
T3K,-0.259
